Published values pooled from the literature.
Compare with care: the assays were run in different laboratories. Numbers after ± are the reported error.
ABCB1: ATP-dependent translocase ABCB1 (ABCB1, Homo sapiens, UniProt P08183)
UniProt P08183, sequence (whole entry, looked up): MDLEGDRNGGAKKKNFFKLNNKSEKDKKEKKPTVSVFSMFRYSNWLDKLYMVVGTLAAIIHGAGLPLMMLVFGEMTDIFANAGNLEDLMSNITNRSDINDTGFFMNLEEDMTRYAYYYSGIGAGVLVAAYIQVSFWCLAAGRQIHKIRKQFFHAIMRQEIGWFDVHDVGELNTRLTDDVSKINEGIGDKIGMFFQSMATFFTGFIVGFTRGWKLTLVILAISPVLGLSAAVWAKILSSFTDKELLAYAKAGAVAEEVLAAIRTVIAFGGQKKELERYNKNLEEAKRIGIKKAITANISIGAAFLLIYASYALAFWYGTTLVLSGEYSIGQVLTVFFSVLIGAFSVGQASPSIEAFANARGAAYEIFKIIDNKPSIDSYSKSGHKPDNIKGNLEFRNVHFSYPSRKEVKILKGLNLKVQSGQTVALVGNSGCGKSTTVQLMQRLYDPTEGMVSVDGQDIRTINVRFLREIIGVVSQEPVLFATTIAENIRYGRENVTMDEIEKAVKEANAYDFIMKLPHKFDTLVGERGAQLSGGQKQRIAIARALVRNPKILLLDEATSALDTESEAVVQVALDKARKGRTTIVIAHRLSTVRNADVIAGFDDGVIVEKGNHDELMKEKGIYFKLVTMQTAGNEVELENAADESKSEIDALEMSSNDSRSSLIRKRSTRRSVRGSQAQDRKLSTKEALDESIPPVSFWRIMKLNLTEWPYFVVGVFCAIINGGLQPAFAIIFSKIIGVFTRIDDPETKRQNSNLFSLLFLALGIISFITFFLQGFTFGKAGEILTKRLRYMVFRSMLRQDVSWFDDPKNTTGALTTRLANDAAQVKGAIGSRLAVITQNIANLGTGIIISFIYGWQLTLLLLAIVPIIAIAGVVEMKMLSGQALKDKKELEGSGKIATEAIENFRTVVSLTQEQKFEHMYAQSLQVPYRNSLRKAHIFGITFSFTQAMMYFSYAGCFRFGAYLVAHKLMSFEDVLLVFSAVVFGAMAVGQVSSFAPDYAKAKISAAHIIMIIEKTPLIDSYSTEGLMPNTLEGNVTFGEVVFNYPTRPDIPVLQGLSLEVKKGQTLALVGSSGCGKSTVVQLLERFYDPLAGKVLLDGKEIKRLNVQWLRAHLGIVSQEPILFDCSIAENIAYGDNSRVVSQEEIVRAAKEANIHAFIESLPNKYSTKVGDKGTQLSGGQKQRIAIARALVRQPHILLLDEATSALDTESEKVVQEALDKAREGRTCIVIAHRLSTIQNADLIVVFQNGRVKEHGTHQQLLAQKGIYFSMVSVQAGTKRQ

SMILES	target or system	test	test system	conditions	how to read	measurement	value
CO[C@H]1C[C@@H]2CC[C@@H](C)[C@@](O)(O2)C(=O)C(=O)N2CCCC[C@H]2C(=O)O[C@H]([C@H](C)C[C@@H]2CC[C@@H](OC(=O)NCCOCCOCCOCCOCCOCCOCCOCCOCCC(=O)N3CCc4cc(Cn5nc(-c6ccc7oc(N)nc7c6)c6c(N)ncnc65)ccc4C3)[C@H](OC)C2)C[C@@H](O)[C@H](C)/C=C(\C)[C@@H](O)[C@@H](OC)C(=O)[C@H](C)C[C@H](C)/C=C/C=C/C=C/1C			patients with advanced solid tumours	intravenous, 6 mg weekly, any grade		pneumonia AE leading to dose reduction	0%
Cc1ncc2n1-c1ccc(Cl)cc1C(c1ccccc1F)=NC2			healthy volunteers, plasma	oral, 5 mg, day 11, with: momelotinib, once daily 200 mg, days 4-11		AUC(0-last)	80.6 ng·h/mL
CN1CC2c3ccccc3Oc3ccc(Cl)cc3C2C1 (centres unmarked)	African green monkey cells			5 days		CC50	5.89 µM
CC(=O)O[C@H]1C=C[C@H]2[C@H]3Cc4ccc(O)c5c4[C@@]2(CCN3C)[C@H]1O5			rat, whole blood	10 nM, 4 months, -80 °C, long-term storage		stability bias	-15.5%
CC(C)CC(=O)OC[C@H]1O[C@@](C#N)(c2ccc3c(N)ncnn23)[C@H](O)[C@@H]1O	ABCB1	basolateral to apical transport	Caco-2	0.9 µM, 2 h, with: verapamil 100 µM		recovery	80%
O=[N+]([O-])c1ccc(N2CCC(NCCC(O)c3ccc(F)c4ccccc34)CC2)c(C(F)(F)F)c1 (centres unmarked)	Salmonella typhimurium	SOS/umu test	TA1535/pSK1002	0.008 mg/mL, 4 h, with S9, lower range		survival	105%
COC(=O)[C@H]1[C@@H](OC(=O)c2ccccc2)C[C@@H]2CC[C@H]1N2			rat, whole blood	10 nM, 4 h, room temperature, bench-top storage		stability bias	14.3%
C[C@]1(CO)Cc2ncn(-c3ccc(C#N)c(Cl)c3)c2C(=O)O1			human	0.7 mg single dose		subjects with any TEAE	28.6%
Cc1cc(C(=O)NC(C)(C)COc2cccc3c2C(N)=NS(=O)(=O)N3)cc(C)n1	Salmonella typhimurium	Ames test, confirmatory	TA98	100 µg/plate	relative to: solvent control	revertant ratio	1.1
COc1ncnn2ccc(-c3cnc4nc(C)n(Cc5nnc([C@@H](C)F)o5)c4c3)c12			human	oral, dose not given, grade 5		patients with amylase increased	0%
O=c1ccc2ccccc2o1	NHEK	mitochondrial reserve capacity, Seahorse		24 h		point of departure	614 µM
COc1cccc([C@@H](C)NCCCc2ccccc2Cl)c1	African green monkey cells			5 days		CC50	28.2 µM
COc1cc2c(Oc3ccc4[nH]c(C)cc4c3F)ccnc2cc1OCC1(N)CC1			paediatric refractory sarcoma patients	10 mg		Triglyceride elevation incidence	50%
O=C(c1ccc(F)c(F)c1Nc1ccc(I)cc1F)N1CC(O)([C@@H]2CCCCN2)C1			human patients	oral, dose not given, dose escalation, tablet		fatal adverse events	0%
CCCCCCC(C)(C)c1cc(O)c([C@H]2CC(=O)[C@H]3C[C@@H]2C3(C)C)c(OC(=O)/C=C/C(=O)O)c1	African green monkey cells			5 days		CC50	7.67 µM
O=C1c2c(O)c(=O)ccn2N([C@@H]2c3ccccc3SCc3c2ccc(F)c3F)[C@@H]2COCCN12			BALB/c mice, plasma	oral, 0.5 mg/kg baloxavir marboxil, 12 h		plasma concentration	not detected
CCCc1nn(C)c2c(=O)[nH]c(-c3cc(S(=O)(=O)N4CCN(C)CC4)ccc3OCC)nc12	ABCB1	transport, inhibitor		100 µM, 5 (unit not given), pH 7, with: NMN		inhibition	86.6%
CN1CC[C@@H](c2c(O)cc(O)c3c(=O)cc(-c4ccc(C(F)(F)F)cc4Cl)oc23)[C@@H]1CO		measured: Epistaxis	AML	oral, 200 mg, intermittent dosing		patients with adverse event	20%
C#C[C@]1(OC(C)=O)CC[C@H]2[C@@H]3CCC4=CC(=NO)CC[C@@H]4[C@H]3CC[C@@]21CC (mixture of isomers)	African green monkey cells			5 days		CC50	20.9 µM
COc1cccc(-c2n[nH]c(SCc3ccccn3)n2)c1OC	Salmonella typhimurium	Ames test, plate incorporation	TA98	0.50 mg/plate, without S9		revertant colonies per plate	22
CN1CC[C@]23c4c5ccc(O[C@@H]6O[C@H](C(=O)O)[C@@H](O)[C@H](O)[C@H]6O)c4O[C@H]2[C@@H](O)C=C[C@H]3[C@H]1C5			rat, whole blood	1000 nM, 4 months, -80 °C, long-term storage		stability bias	2.88%
CN(C)CCOC1=Cc2ccccc2Sc2ccc(Cl)cc21	African green monkey cells			5 days		CC50	12.3 µM
CC(=O)Oc1ccc2c3c1O[C@H]1[C@@H](OC(C)=O)C=C[C@H]4[C@@H](C2)N(C)CC[C@@]341			rat, whole blood	1000 nM, 4 h, room temperature, bench-top storage		stability bias	-14.6%
COC(=O)N[C@H](C(=O)N1CCC[C@H]1c1ncc(-c2ccc3cc(-c4ccc5nc([C@@H]6CCCN6C(=O)[C@@H](NC(=O)OC)C(C)C)[nH]c5c4)ccc3c2)[nH]1)C(C)C	African green monkey cells			5 days		CC50	12.7 µM
CC1CCNc2c(C(=O)NC/C=C/S(C)(=O)=O)cccc21 (centres unmarked)			male C57BL/6 mice, plasma	intravenous, 2.5 mg/kg, 24 h		clearance	532 ± 93.8 mL/min/kg
C#C[C@]1(O)CC[C@H]2[C@@H]3CCc4cc(OC5CCCC5)ccc4[C@H]3CC[C@@]21C	African green monkey cells			5 days		CC50	7.59 µM
COC(=O)[C@@H]1[C@H]2CC[C@@H](C[C@@H]1O)N2C			rat, whole blood	10 nM, 4 h, room temperature, bench-top storage		stability bias	2.83%
CC(Cc1ccccc1)NCCC(c1ccccc1)c1ccccc1 (centres unmarked)	African green monkey cells			5 days		CC50	8.41 µM
O=C(NCc1cccnc1)Nc1ccc([N+](=O)[O-])cc1	mouse DRG neurons	neurite degeneration		50 µM, 8 h	relative to: vehicle	degeneration index difference	34.2

Repeated from above:
SMILES	target or system	test	test system	conditions	how to read	measurement	value
Cc1ncc2n1-c1ccc(Cl)cc1C(c1ccccc1F)=NC2			healthy volunteers, plasma	oral, 5 mg, day 11, with: momelotinib, once daily 200 mg, days 4-11		AUC(0-last)	80.6 ng·h/mL
Cc1cc(C(=O)NC(C)(C)COc2cccc3c2C(N)=NS(=O)(=O)N3)cc(C)n1	Salmonella typhimurium	Ames test, confirmatory	TA98	100 µg/plate	relative to: solvent control	revertant ratio	1.1
O=[N+]([O-])c1ccc(N2CCC(NCCC(O)c3ccc(F)c4ccccc34)CC2)c(C(F)(F)F)c1 (centres unmarked)	Salmonella typhimurium	SOS/umu test	TA1535/pSK1002	0.008 mg/mL, 4 h, with S9, lower range		survival	105%
O=c1ccc2ccccc2o1	NHEK	mitochondrial reserve capacity, Seahorse		24 h		point of departure	614 µM
